Measurements pooled from the literature.
Compare with care: the assays were run in different laboratories. ± gives the spread as reported.

Compound	cell line	assay	conditions	IC50
C=C[C@]1(C)CC[C@H]2C(=C1C#N)c1c([nH]c3ccccc13)C2(C)C (relative stereo)	SF-268	cytotoxicity		> 40 µM
CCOCCOC(=O)Nc1cc2nc(C3CCCCC3)[nH]c2cc1N1CCCC1	Vero	cytotoxicity, Alamar Blue	3 days, 37 °C	> 100 µg/mL
CC1=C(CO)C(=O)O[C@@H]([C@@H](C)[C@H]2CC[C@H]3[C@@H]4C[C@H]5O[C@]56[C@@H](O)C=CC(=O)[C@]6(CO)[C@H]4CC[C@]23C)C1	MDA1986 HNSCC	cell viability, MTS		3.1 ± 0.46 µM
CCCN(Cc1ccccc1OC)C(=O)c1cc(F)cc(Br)c1	HEK293	cell viability, MTT	72 h	18 µM
Cc1c(O)cc(C[C@]23C[C@H](C[C@H](C)O2)c2c4c(c(O)c(C)c2O3)CO[C@]2(CCC[C@H](C)O2)C4)c(C=O)c1O	IMR-90	cytotoxicity		38 µM
CCN(CC)c1cc2[nH]c(C3CCCCC3)nc2cc1NC(=O)c1cccc(Br)c1	Vero	cytotoxicity, Alamar Blue	3 days, 37 °C	> 100 µg/mL
CCCN(Cc1ccccc1OC)C(=O)c1cccc(Br)c1F	HEK293	cell viability, MTT	72 h	24 ± 9.4 µM
CCOCCOC(=O)Nc1cc2nc(C3CCCCC3)[nH]c2cc1N(CC)CC	Vero	cytotoxicity, Alamar Blue	3 days, 37 °C	> 100 µg/mL
CCCN(Cc1ccccc1OC)C(=O)c1cc2c(s1)CCCC2	HEK293	cell viability, MTT	72 h	29 to 31 µM
CC(C)(O)[C@H](O)COc1c2occc2cc2ccc(=O)oc12	NIH3T3	cell growth or viability, MTT	24 h	65.8 µM
CCCN(Cc1ccccc1OC)C(=O)c1ccc(F)c(Br)c1	HEK293	cell viability, MTT	72 h	36 ± 12 µM
CC1=C(CC(=O)Oc2ccc(-c3cc(=S)ss3)cc2)c2cc(F)ccc2/C1=C\c1ccc([S+](C)[O-])cc1 (stereo not drawn)	HepG2 and LS180	EROD activity, inhibitor	24 h, averaged over cell lines, added: DMBA 1 µM	8.5 µM

Excerpt of the above:
Compound	cell line	assay	conditions	IC50
CCCN(Cc1ccccc1OC)C(=O)c1cc(F)cc(Br)c1	HEK293	cell viability, MTT	72 h	18 µM
